Results from different studies.
Every numbered part comes from another study and shows a few of its results, in no order.

Sample 1
Target: Ras GTPase-activating protein-binding protein 1, C-terminal RGG region (G3BP1, Homo sapiens, UniProt Q13283)
UniProt Q13283, sequence (whole entry, looked up): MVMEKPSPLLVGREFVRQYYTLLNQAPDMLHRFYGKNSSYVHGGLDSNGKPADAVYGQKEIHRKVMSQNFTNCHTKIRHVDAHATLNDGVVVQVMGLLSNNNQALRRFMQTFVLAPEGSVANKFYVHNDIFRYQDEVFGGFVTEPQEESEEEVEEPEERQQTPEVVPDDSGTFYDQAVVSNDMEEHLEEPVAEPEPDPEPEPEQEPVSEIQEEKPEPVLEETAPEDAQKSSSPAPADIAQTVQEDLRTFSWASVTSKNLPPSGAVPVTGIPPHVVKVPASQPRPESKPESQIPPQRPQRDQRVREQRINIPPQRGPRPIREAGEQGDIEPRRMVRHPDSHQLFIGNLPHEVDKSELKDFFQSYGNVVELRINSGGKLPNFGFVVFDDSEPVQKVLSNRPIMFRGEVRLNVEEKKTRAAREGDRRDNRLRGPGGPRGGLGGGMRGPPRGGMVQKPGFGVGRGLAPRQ
Technique: RNA Bind-n-Seq
Molecule type: RNA
Matrix: in vitro
Concentration: 1 µM
Setting: whole 134-nt RNA, ends assumed
Added: 150 mM KCl
Baseline: input library
Direction: higher = stronger binding
All sequences stand within: GGGAGUUCUACAGUCCGACGAUC … UGGAAUUCUCGGGUGUCAAGG
Sequence	log2 enrichment
UUUGCAGGAUUAAUCACUCCUGAAGAUCGGAAAUAUGGAACAACAAAUCUUCACUUAGAUGUAUCUGAUGCAGCUAAUGUCAUGGUCUAU	-2.32
CAAGUCCUGUGCUACACAUCGUAUGUACCGAAUCGGAAAGGGGAAAGGAAAGGGGAAAGUAUUAUGUUACGCCGUUCGGAUCUGCACUUC	-0.827
CACAGACAAAACGCACCCACACAGACACAGAGGGAAGGGGUUGGGAUGGGGACAGGGUGCACAGCAGGGCGGGGUAGGACCCCAGCCCCU	-0.281
AGUCCUGUGCUACACAUCGUAUGUACCGAAUCGGGCCCCCGGCCCCCGGGGCCCCCGGAAAGUAUUAUGUUACGCCGUUCGGAUCUGCAC	-1.87
CAAGUCCUGUGCUACACAUCGUAUGUACCGAAUCGGUUUUUGGAAAGGAAAAAGGAAAGUAUUAUGUUACGCCGUUCGGAUCUGCACUUC	-1.74
UAGGAAAACCGUCUUCAGAUACAGUCCCUAAGCCCAAGAGAGCCCCAAAACAGAAGAAAGUAGUAGAGGCUGUAAACUCUGACUCGGAUU	-0.626

Sample 2
Target: Prothrombin, mature alpha-thrombin (F2, Homo sapiens, UniProt P00734)
Technique: aptamer microarray, sandwich
Molecule type: DNA with 2'F-ANA
Matrix: in vitro
Concentration: 200 nM
Setting: whole 15-mer aptamer, many near background
Added: Cy3 exosite-II aptamer, 400 nM
Direction: higher = stronger binding
Sequence: GGTTGGTGTGGTTGG
Modification	mean fluorescence intensity [a.u.]
2'F-ANA at 1 3 4 7 8 10 12	97.8
2'F-ANA at 1 2 3 5 6 9 11 12 14 15	48.2
2'F-ANA at 1 2 3 5 9 11 13 15	51.5
2'F-ANA at 2 3 4 7 11 12 15	920
2'F-ANA at 1 5 9 12 13 15	72.1
2'F-ANA at 5 7 8 11 13 14	44.7
2'F-ANA at 1 3 4 6 12 13 14 15	74
2'F-ANA at 1 2 3 4 6 7 9 11 14	56.1

Sample 3
Target: PABPC1L2, full length, GST fusion (mouse, UniProt A0ABA7IW68)
Technique: RNAcompete
Molecule type: RNA
Matrix: in vitro
Concentration: 20 nM
Setting: 7-mer, probes averaged, single round
Baseline: mean of 7-mers
Direction: higher = stronger binding
Residues (chain): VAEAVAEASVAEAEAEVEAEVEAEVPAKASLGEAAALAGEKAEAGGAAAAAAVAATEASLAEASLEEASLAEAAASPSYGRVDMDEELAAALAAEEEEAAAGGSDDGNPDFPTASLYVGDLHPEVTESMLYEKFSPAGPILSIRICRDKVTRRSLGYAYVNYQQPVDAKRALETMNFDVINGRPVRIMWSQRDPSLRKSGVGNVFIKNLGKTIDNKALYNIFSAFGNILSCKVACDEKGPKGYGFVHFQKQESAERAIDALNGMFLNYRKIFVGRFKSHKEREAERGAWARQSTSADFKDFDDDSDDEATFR
Sequence	7-mer Z-score
AUAGUGC	-0.155
GCCAUGG	-0.271
UCAACAC	-0.108
GAACAAU	0.207
CGAACCU	-0.179
GUUAGGG	-0.00833
AUCUGUG	-0.251

Other studies, line by line
Molecule	target	assay	system	conditions	how to read	endpoint	result
PhoQ, residues 284 288 289 292 302 303 SSCCRF	PhoP, residues 12 14 15 18 19 NHFIF (Escherichia coli, UniProt P23836)	Sort-seq, measured: YFP reporter	E. coli	PhoQ-PhoP variant library, added: 10 µM Mg2+	baseline: high Mg2+ state, higher = stronger signaling	fold induction	8.5

A few entries again (sample 2):
Modification	mean fluorescence intensity [a.u.]
2'F-ANA at 1 5 9 12 13 15	72.1
2'F-ANA at 5 7 8 11 13 14	44.7
